Measured values collected from several papers.
A part holds a random share of what one study measured. Changes are numbered by the printed parent chain.

Block 1 — method: RNA Bind-n-Seq; form: RNA; matrix: in vitro; tested at: 100 nM; relative to: input RNA pool; direction: higher = stronger binding
Target: RING finger protein unkempt homolog, zinc fingers 1-6, SBP tag (UNK, Homo sapiens, UniProt Q9C0B0, residues 30-357)
Chain of UniProt Q9C0B0 (30-357, looked up): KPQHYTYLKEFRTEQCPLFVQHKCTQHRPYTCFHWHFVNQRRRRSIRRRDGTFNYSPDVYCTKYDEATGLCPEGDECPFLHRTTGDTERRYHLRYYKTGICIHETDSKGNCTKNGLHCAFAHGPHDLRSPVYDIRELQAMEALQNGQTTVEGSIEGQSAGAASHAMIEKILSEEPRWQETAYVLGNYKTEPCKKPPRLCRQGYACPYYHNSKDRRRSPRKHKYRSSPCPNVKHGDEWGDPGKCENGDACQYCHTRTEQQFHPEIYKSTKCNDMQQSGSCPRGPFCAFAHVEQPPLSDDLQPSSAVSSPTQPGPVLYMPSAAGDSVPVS
Notes: RNA with constant flanks, vertebrate orthologous sites, ends assumed
Constant ends, left off below: GGGAGUUCUACAGUCCGACGAUC … CAACAGAGGAUUGAGCAUCA
For `AACUACUAAAAAAACCAAACCCAAAACUGAACACCAUUUAUAAACGUAUCAGUUCACACAGACCUGCAUUAAACAACUUUUAUAAAUUUUUCAGGGUGUCACUAGAUUUGCUAAAUCUAA`, the bound/input enrichment was 0.638 ratio.
For `UUUUGACUUCCUUUAUUCCUUUUUGUUUUCUUUUGCUUUAUUUUUAUUUUAUUUUUUUGGUAGUUGUUCUGACCCACGCCAUUUUACGUCUCCUUCACUGAAGGGCUAGAGUUUUAACUU`, the bound/input enrichment was 10.5 ratio.
With `GUUUGUUUCUAAUUUCAAGCAAAAAAAAAUCUUAUUGUACUUGAAUGUGUCCUGUUUUGUUAGCACACCUAGACUUGCUGUAACUGUACUCAUGUCCCAGUAUGUACGUUCUUUCUAUGA` the bound/input enrichment was 0.64 ratio.
With `UCCCAGCACGUUGAUAAAGAGCGUGGACUGGUUGCUCAUAUUUUCUUUAUUCUUUUUAAUCAGUUUUAUUAUGUAUGCUACCAUCCGAACUGAGAGUAUUCGGUGGCUAAUUCCAGGACA` the bound/input enrichment was 0.614 ratio.
`UUCUCCUGGGUUAGAGCGGGGUCUCCCUCUACAUCUCCCGUGAGGGGAAAAAGCCCCAAAUAGUCCUUACACAUCUGAUUAGAGUGUUCUGUCUCUGCCAUCUACUUGUACAUAUGCGUC` has a bound/input enrichment of 0.788 ratio.
With `CUACUAUAAACAACUCAGGGCAGUAUUCUCGAUAUCCUUACAGUAACCUAAAUCAGGGAUUAGUUAACAAUACAGGGAUGAAUCAAAAUUUAGGCCUUACAAAUAAUACUCCAAUGAAUC` the bound/input enrichment was 1.55 ratio.
`ACACUUAUAUUGUGGCAUAUAGUCAACAUGGAAGUAGACCAGCUCUGCUGAUUUGAAAUUUAGAUUUUUUUUUAAUUAUGUACUGGGGACAGGUUUUUGUCGCUUUACAUUGCUUCCUAG` has a bound/input enrichment of 4.93 ratio.
With `AGGGACGCUUUGAUGUAAAAAUUGAAGUUAAGAGCUGAUCACAAGCACAAAUCUUUCCCACUAGCCAUUUAAAAAGUUAAAAAAGAUACAAAAACAAAAACCUACUAGUCUUGAAUAAAC` the bound/input enrichment was 1.69 ratio.
The bound/input enrichment of `CCCAGUUUGUAUGUACAUUAUUCACAUUCCUCUCUGUUUUGUUGGGAAAAGAGACAUUUUAACCUUUUUUAAAAGGUUAUUGAUUUAAUUUCAUGUUAUUUGGUUGCAUGAAGUUGCCCU` is reported as 0.275 ratio.
For `ACCUUUUGUAGGCCAAAUACCCUCCUUCUACUGCUUCUGCCAACUGGAAGCACAGAAAACUAGAAUUUCAUUUUAUUUUGUUUAAAAAAAAAAAAAAAAUUGAUUUCUUGUAACAUCCAC`, the bound/input enrichment was 0.758 ratio.
`UGGGUUAUUCCUAUUAUUAUCAAGUAGCUGGAAUUGUGAAGGUCGGAGUAGUUAGAGCUUUAGCUUUUAUUCCUUAUUUUUUUGUAUUACUAUCCAUGUGUAUAAAUUAUUGAUCAUGUU` has a bound/input enrichment of 1.63 ratio.

Block 2 — method: protein binding microarray; form: double-stranded DNA, one strand shown; matrix: in vitro; tested at: not given; relative to: not given; direction: higher = stronger binding
Target: Histone acetyltransferase KAT6A, both winged helices, GST fusion (KAT6A, Homo sapiens, UniProt Q92794, residues 1-181)
Notes: 8-mer, flanks averaged, mean of 2 arrays, mostly near background
Construct (chain): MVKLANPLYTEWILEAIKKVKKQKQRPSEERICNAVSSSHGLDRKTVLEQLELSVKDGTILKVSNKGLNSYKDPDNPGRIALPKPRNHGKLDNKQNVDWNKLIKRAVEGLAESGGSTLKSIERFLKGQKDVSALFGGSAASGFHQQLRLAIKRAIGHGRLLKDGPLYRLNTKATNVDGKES
For `AAAAGCGG`, the E-score was 0.311.
With `CAGTGAGG` the E-score was -0.138.
`GACGAAAC` has an E-score of 0.0276.
For `CGTCTGAG`, the E-score was -0.0195.
For `GTGTAGAA`, the E-score was -0.0896.
For `ATCGAAGC`, the E-score was 0.00705.
With `AGGGCATG` the E-score was -0.251.
`CACACCGC` has an E-score of 0.157.
`AAGAATAG` gave an E-score of -0.0935.
`CTTTATGA` has an E-score of -0.171.
With `CGAGTTAG` the E-score was -0.0341.
`CTGGAGGC` gave an E-score of -0.119.
`CTCAGGAC` gave an E-score of -0.124.
`AGACACCA` gave an E-score of -0.173.
`ATCAAGTC` has an E-score of -0.0338.
`CATCGTAA` gave an E-score of 0.118.
For `AAGAAATG`, the E-score was -0.177.

Block 3 — target: CREB3L2, bZIP domain (human); method: DHFR protein complementation; matrix: yeast; relative to: wild-type JUN-FOS pair; direction: higher = stronger binding
Notes: single substitutions, most at no-binding floor
Starting sequence: JUN, bZIP domain (human); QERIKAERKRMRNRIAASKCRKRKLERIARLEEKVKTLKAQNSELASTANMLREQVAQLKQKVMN; partner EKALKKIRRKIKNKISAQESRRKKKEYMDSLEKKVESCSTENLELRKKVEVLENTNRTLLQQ
With `S43L` the binding fitness was -1.41 natural log.
With `E32Q` the binding fitness was -1.19 natural log.
With `E54T` the binding fitness was -1.4 natural log.
For `V56H`, the binding fitness was -1.57 natural log.
With `M51C` the binding fitness was -1.52 natural log.
`L31G` has a binding fitness of -1.48 natural log.
For `K34P`, the binding fitness was -1.48 natural log.
`E44R` gave a binding fitness of -1.47 natural log.
The binding fitness of `Q55K` is reported as -1.55 natural log.
With `K34M` the binding fitness was -1.32 natural log.
For `L31R`, the binding fitness was -1.53 natural log.
For `V35F`, the binding fitness was -1.51 natural log.
The binding fitness of `I28L` is reported as -1.46 natural log.
`A57M` gave a binding fitness of -1.37 natural log.
`T37H` gave a binding fitness of -1.42 natural log.
With `M51E` the binding fitness was -1.47 natural log.
For `L38A`, the binding fitness was -1.53 natural log.
For `S47G`, the binding fitness was -1.46 natural log.
The binding fitness of `E33P` is reported as -1.55 natural log.
The binding fitness of `E44G` is reported as -1.51 natural log.

Block 4 — method: universal PBM; form: double-stranded DNA, one strand shown; matrix: in vitro; tested at: 600 nM; direction: higher = stronger binding
Target: Sal-like protein 4, full length isoform A (SALL4, Homo sapiens, UniProt Q9UJQ4, residues 1-1053)
Chain of UniProt Q9UJQ4 (whole entry, looked up): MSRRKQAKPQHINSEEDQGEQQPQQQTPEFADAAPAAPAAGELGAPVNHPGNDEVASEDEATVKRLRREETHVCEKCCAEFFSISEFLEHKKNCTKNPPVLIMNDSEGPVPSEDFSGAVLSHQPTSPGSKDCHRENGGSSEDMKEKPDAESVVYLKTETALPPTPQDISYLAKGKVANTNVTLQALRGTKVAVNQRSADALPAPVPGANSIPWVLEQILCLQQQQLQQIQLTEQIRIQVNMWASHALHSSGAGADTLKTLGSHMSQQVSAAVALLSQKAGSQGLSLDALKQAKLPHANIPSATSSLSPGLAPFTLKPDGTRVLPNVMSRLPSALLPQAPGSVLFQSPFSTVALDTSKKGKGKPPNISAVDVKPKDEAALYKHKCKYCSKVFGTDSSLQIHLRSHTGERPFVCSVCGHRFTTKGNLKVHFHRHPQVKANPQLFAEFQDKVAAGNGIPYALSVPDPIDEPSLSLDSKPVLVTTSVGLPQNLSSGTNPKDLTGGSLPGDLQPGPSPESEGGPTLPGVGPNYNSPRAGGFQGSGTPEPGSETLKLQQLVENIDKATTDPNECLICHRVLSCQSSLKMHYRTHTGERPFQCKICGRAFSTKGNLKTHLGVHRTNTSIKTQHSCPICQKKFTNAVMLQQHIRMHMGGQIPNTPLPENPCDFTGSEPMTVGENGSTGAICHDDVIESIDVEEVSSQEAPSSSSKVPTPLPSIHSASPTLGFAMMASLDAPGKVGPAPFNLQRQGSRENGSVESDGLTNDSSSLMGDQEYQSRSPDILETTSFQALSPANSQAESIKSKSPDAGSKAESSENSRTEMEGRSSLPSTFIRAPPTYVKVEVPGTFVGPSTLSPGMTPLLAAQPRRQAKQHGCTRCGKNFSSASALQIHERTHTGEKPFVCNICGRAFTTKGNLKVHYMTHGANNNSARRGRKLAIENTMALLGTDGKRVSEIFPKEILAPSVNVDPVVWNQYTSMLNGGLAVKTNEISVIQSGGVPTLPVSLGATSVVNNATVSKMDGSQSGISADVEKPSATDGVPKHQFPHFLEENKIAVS
Notes: 8-mer, flanks averaged, mean of replicates
`TAAGGCTA` has an E-score of 0.0823.
With `ATTCGATG` the E-score was 0.0401.
The E-score of `AGAAAAAG` is reported as -0.0541.
With `GGTAATGA` the E-score was 0.19.
For `ACGTTAGC`, the E-score was 0.0524.
`ATACATCG` has an E-score of 0.176.
`ACGTATGG` gave an E-score of 0.125.
`CGGAGGTC` has an E-score of -0.206.
With `AGATACTA` the E-score was 0.111.
The E-score of `GAATCTGC` is reported as -0.0764.
The E-score of `AACACCCC` is reported as -0.114.
With `AACATGCT` the E-score was -0.0237.
`AAGTTCAT` gave an E-score of 0.0794.
With `TACGCGGA` the E-score was -0.0005.
With `CGACTGCA` the E-score was -0.0999.
With `ACCGGCTC` the E-score was -0.337.
`CGGACTAC` has an E-score of -0.0271.

Block 5 — method: EMSA with sequencing; form: double-stranded DNA, one strand shown; matrix: in vitro; tested at: 10 and 20 nM; relative to: negative control set to 0; direction: higher = stronger binding
Target: Hepatocyte nuclear factor 3-alpha (Foxa1, Mus musculus, UniProt P35582, residues 1-468, full length assumed)
Notes: whole designed probe, mean of two concentrations, ends assumed
Constant ends, left off below: GTGAGCGGTGCCCATTGATGGGGAAC … TTTCACTGGGATCGTGGGGAC
Target sequence (chain): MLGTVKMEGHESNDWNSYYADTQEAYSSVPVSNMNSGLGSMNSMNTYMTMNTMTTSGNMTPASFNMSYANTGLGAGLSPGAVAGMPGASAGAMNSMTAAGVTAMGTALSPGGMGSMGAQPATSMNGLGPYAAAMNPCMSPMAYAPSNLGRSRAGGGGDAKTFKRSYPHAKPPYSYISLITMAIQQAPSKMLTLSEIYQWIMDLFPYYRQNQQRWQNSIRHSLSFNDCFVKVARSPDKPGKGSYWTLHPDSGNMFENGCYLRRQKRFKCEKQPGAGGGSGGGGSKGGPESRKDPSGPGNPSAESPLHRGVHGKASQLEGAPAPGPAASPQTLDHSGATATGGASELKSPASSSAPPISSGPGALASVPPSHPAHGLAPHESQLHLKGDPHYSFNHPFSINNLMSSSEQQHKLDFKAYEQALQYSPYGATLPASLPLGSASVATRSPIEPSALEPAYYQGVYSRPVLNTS
`TATATCTAACACTGAAATTTTATTTTTTTAAATTTTTTTCTCCTACTTTCAAGCTAACAAGTTATATTTTATTTTTTAAAATAACCTGACTATGTTTACTTTGGAAAACCCTACTAAAAACCTTTCAACAACCCCACCCTACTCTCTATCTTCTCCAGATTTTGCATGTTAAATTTCTAGGACCTTGTAATCT` — result for “normalised bound fraction”: 0.33 ratio.
For `TAAGTACTGCTATTTTATTTTTTACCATAAAAGAGTTGTGTACTCTCACACAGTGTGCTTGTGCAATTTTACTACACAGACACAAGTGTGGCTAAATTACCCTTGTGAAGTAAGTTATTTGAAAGAAAACATTGCCTTATTCACATTGTATCTCCTACAATGTGTTGTGCATAATGAAACAATAAATATTTAT`, “normalised bound fraction” read 0.208 ratio.
`GGATTCTTTCATTATACAAATACAGATGTTATTTTTTAATTTCAGAAGAAATCATGGTATATCAATCTATTGAGTGCTAACTAAAAGTTCCCTTTGTTTACTTAGCTTTCTCTTAGTTATAAGAAAGAAAAAGACCTCTTGCATGAAAATAGTACGTTGCAGGAAGAAATTGTCATGCTAAGACTGGAACTAG`: “normalised bound fraction” 0.519 ratio.
Under “normalised bound fraction”, `TTTTTTCTTTTAGTTTTCATTTTTTTTCTGAAAACAGAAACACACAGTAACATGTAATATAAAATTGCTTTTATTATAAATAACCCCTTACAATGTAAACAAATATATTGATATTATAAAACCACTGGTCCTCATTTGTTTTAATATGGCAAAATTAAATAACCTTTCACATTAAAAATATACTCTTTAGTTT` is recorded as 0.456 ratio.
For `ATCTTCCCCCTCTTCCTTGCCCCACCAGCTCACCTTCCCGGGTCAAAGTAAACAAGTGTTTACTTTGAAGCCGGCATTCGTTAACCCTCTTCTGGCGCAAACTGCTGTTTGCTCTGGATGAATCATGGTCCTTTGGCGACGCCAGGCTCCGGGAGAGCAAAGCACCGTGTCAGGGCCATGATCCGGGGTGGCC`, “normalised bound fraction” read 0.453 ratio.
Under “normalised bound fraction”, `CTCCAGGGTAGTTGTCCTTCCTGTGGCTGCTCACTGATCCAGGCTACTTTGATCTTGTGACTCAAAGTTCAACAAAATGTGGATGCGTCATTTTATTTACACTTCAATGGCCAGAACATACGAATTGGCCTCATCCAGTTGCAAGAAGTTTGGGAAATGTAGCCTTCCATATTTACAGGAATAAATGAAAAAC` is recorded as 0.29 ratio.
Under “normalised bound fraction”, `GAGTGAGTAAGTGAGTGTGTGTGTGTGTGTGTGTGTGTGTGTGTGTGTGTGTGTGCTGGAGGTATGGCAGCTACCTCTTGCACATAATATTTGAGAGTACATATGTATATATGTGTGTGTATATATATGTGTGTATGTGTATATATACGCACATATATGTGCGTGTATGTGTGTATATACACACGTATGTGTG` is recorded as 0.205 ratio.
Under “normalised bound fraction”, `GCCACTCCCCGAGGGCTTTGAGGGATCTTTGAACGTTGTGCCCATCGCTGCTGCCGCTAGGGGGCCCAGGAGGGCCGCGGTTTGGAGCTGCTCTGTTTACACAAAGGGAATAGGGTCCCAGTGGGTGTTGCCGTTCGTCCATGACAGCCCACTGGATCAGGTCCCACAGTGCAAGCAATAACGTTTTGGGGGA` is recorded as 0.446 ratio.
